{"data": "Measured values collected from several papers", "note": "Lines come from different studies, so protocols differ. Several values in a cell are separate wells, animals, samples, runs or records. ± marks the error that the study gave.", "UniProt Q16774, sequence (whole entry, looked up)": "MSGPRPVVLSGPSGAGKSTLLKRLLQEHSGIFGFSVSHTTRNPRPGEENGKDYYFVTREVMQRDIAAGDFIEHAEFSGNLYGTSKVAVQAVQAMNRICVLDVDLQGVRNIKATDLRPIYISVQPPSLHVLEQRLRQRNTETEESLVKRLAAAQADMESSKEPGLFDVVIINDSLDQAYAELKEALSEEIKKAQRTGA", "UniProt P51575, sequence (whole entry, unmodified, looked up)": "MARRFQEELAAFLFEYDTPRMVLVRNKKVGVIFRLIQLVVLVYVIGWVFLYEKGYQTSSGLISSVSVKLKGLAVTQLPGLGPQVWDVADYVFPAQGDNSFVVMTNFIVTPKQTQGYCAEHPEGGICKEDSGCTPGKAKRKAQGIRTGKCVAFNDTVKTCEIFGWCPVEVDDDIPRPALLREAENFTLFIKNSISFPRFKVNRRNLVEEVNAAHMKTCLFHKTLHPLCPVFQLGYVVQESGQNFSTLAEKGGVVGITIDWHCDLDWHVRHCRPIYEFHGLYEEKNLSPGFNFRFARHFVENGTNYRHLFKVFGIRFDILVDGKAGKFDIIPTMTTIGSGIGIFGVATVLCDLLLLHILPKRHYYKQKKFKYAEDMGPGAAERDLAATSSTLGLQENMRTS"}
{"Compound": "CC1=C(Cn2cncn2)C(=O)c2ccccc2C1=O", "tested on": "Schistosoma mansoni", "system": "adult worms", "conditions": "25 µM, 24 h", "quantity": "killing", "value": "41.7%"}
{"Compound": "Cn1cc(Nc2nccc(-c3ccc4c(c3)CN(C3COC3)CC[C@H]4NC(=O)c3cn(C(C)(C)C)nn3)n2)cn1", "system": "human, whole blood", "conditions": "150 mg twice daily, day 14", "how to read": "relative to: pre-dose baseline", "quantity": "B cell count change", "value": "20.2%"}
{"Compound": "Nc1ncnc2c1ncn2[C@@H]1O[C@H](COP(=O)(O)CP(=O)(O)OP(=O)(O)O)[C@@H](O)[C@H]1O", "tested on": "P2X purinoceptor 1 (P2RX1, Homo sapiens, UniProt P51575, M214A)", "assay": "calcium influx", "conditions": "10 nM", "how to read": "relative to: ionomycin response", "quantity": "calcium influx", "value": "0% and 0.457%"}
{"Compound": "O=C(Nc1nc2cccc(-c3ccc(CN4CCS(=O)(=O)CC4)cc3)n2n1)C1CC1", "assay": "measured: abdominal discomfort", "system": "rheumatoid arthritis patients", "conditions": "oral, 100 mg twice daily, 4 weeks", "quantity": "patients with TEAE", "value": "8.3%"}
{"Compound": "O=C(O)CNC(=O)Cc1ccccc1", "system": "ventricular cardiomyocytes, C57BL/6 mouse", "conditions": "dose not given, 0.524 s", "quantity": "sarcomere length", "value": "1.62 µm"}
{"Compound": "C[C@](N)(Cc1ccc(O)c(O)c1)C(=O)O", "tested on": "Nedd8-cullin1 interaction", "assay": "neddylation, AlphaScreen", "conditions": "100 µM", "quantity": "inhibition", "value": "-13.4%"}
{"Compound": "Cc1ccc(Nc2cnnc3ccc(-c4ccc(N5CCN(C)CC5)cc4)cc23)cn1", "tested on": "Schistosoma mansoni", "system": "adult worms", "conditions": "10 µM, 1 h", "how to read": "direction not given", "quantity": "phenotypic severity score", "value": 1}
{"Compound": "OC(CCN1CCCCC1)(c1ccccc1)C1CC2C=CC1C2 (stereo not shown)", "assay": "resting-state EEG", "system": "healthy elderly humans", "conditions": "oral, 2 mg, eyes open, LS mean", "quantity": "EEG power, gamma, Fz-Cz", "value": "0.5 µV²"}
{"Compound": "CC1=C(Cn2cc(CNC(=O)OC(C)(C)C)nn2)C(=O)c2ccccc2C1=O", "tested on": "Schistosoma mansoni", "system": "adult worms", "conditions": "25 µM, 24 h", "quantity": "killing", "value": "54.2%"}
{"Compound": "CCCCc1ncc(/C=C(\\Cc2cccs2)C(=O)O)n1Cc1ccc(C(=O)O)cc1", "tested on": "Nedd8-cullin1 interaction", "assay": "neddylation, AlphaScreen", "conditions": "100 µM", "quantity": "inhibition", "value": "79.4%"}
{"Compound": "CC1=C(Cn2ccnc2[N+](=O)[O-])C(=O)c2ccccc2C1=O", "tested on": "Schistosoma mansoni", "system": "adult worms", "conditions": "25 µM, 24 h", "quantity": "killing", "value": "48.5%"}
{"Compound": "O=C(O)CC[C@H](NC(=O)N[C@@H](CCCCNC(=O)[C@H](Cc1ccc2ccccc2c1)NC(=O)CCCCCNC(=O)CN1CCN(CC(=O)O)CCN(CC(=O)O)CCN(CC(=O)O)CC1)C(=O)O)C(=O)O [gallium-68 labelled]", "assay": "PET/CT", "system": "mouse, 22Rv1 xenograft, tumour", "conditions": "intravenous, 3.7 MBq, 2 h", "quantity": "SUVmean", "value": "1.24 ± 0.06 SUV"}
{"Compound": "CC1=C(Cn2cc(CN3CCOCC3)nn2)C(=O)c2ccccc2C1=O", "tested on": "Schistosoma mansoni", "system": "adult worms", "conditions": "10 µM, 72 h", "quantity": "killing", "value": "47.2%"}
{"Compound": "Cc1cc(Nc2ccc(S(F)(F)(F)(F)F)cc2)n2nc(C(C)(F)F)nc2n1", "tested on": "Plasmodium falciparum", "assay": "12-lead ECG", "system": "malaria patients", "conditions": "oral, 400 mg, increase above 60 ms", "quantity": "patients with QTcF increase", "value": "0%"}
{"Compound": "CC1=C(Cc2cn(CCN3CCC(F)(F)CC3)nn2)C(=O)c2ccccc2C1=O", "tested on": "Schistosoma mansoni", "system": "adult worms", "conditions": "25 µM, 48 h", "quantity": "killing", "value": "41.5%"}
{"Compound": "NC[C@H]1CC[C@H](C(=O)O)CC1", "tested on": "Nedd8-cullin1 interaction", "assay": "neddylation, AlphaScreen", "conditions": "100 µM", "quantity": "inhibition", "value": "31.2%"}
{"Compound": "N#Cc1ccc2c(c1)[C@H]1CCCN(C(=O)c3ccc4[nH]cnc4c3)[C@H]1C2", "system": "human, female", "conditions": "360 mg, day 15", "quantity": "DHEA-S level", "value": "9.6 µmol/L"}
{"Compound": "CC(C)NCC(O)c1ccc(O)c(O)c1 (stereo not shown)", "system": "ventricular cardiomyocytes, C57BL/6 mouse", "conditions": "dose not given, 0.1 s", "quantity": "sarcomere length", "value": "1.72 µm"}
{"Compound": "CCC(C(=O)O)c1ccc(N2Cc3ccccc3C2=O)cc1 (stereo not shown)", "tested on": "Nedd8-cullin1 interaction", "assay": "neddylation, AlphaScreen", "conditions": "100 µM", "quantity": "inhibition", "value": "71.4%"}
{"Compound": "COc1ccc(Nc2cnnc3cc(-c4cnc(N5CCCN(C)CC5)nc4)ccc23)cc1", "tested on": "Schistosoma mansoni", "system": "adult worms", "conditions": "10 µM, 24 h", "how to read": "direction not given", "quantity": "phenotypic severity score", "value": 1}
{"Compound": "Nc1nc2c(ncn2[C@@H]2O[C@H](COP(=O)(O)O)[C@@H](O)[C@H]2O)c(=O)[nH]1", "tested on": "GUK1 (Homo sapiens, UniProt Q16774)", "assay": "enzyme activity, NADH-coupled", "conditions": "250 µM, with: NaCl 50 mM", "quantity": "reaction velocity", "value": "0.0709 µM/s and 0.0814 µM/s and 0.0889 µM/s"}
{"Compound": "CC[C@H](C)C(=O)O[C@H]1CCC=C2C=C[C@H](C)[C@H](CC[C@@H]3C[C@@H](O)CC(=O)O3)[C@H]21", "tested on": "Nedd8-cullin1 interaction", "assay": "neddylation, AlphaScreen", "conditions": "100 µM", "quantity": "inhibition", "value": "59.7%"}
